Results of several laboratories.
Every numbered part comes from another study and shows a few of its results, in no order.

Block 1 — technique: universal PBM; form: double-stranded DNA, one strand shown; matrix: in vitro; concentration: 600 nM; direction: higher = stronger binding; endpoint: E-score
Target: Sal-like protein 4, full length isoform A (SALL4, Homo sapiens, UniProt Q9UJQ4, residues 1-1053)
Sequence of UniProt Q9UJQ4 (whole entry, looked up): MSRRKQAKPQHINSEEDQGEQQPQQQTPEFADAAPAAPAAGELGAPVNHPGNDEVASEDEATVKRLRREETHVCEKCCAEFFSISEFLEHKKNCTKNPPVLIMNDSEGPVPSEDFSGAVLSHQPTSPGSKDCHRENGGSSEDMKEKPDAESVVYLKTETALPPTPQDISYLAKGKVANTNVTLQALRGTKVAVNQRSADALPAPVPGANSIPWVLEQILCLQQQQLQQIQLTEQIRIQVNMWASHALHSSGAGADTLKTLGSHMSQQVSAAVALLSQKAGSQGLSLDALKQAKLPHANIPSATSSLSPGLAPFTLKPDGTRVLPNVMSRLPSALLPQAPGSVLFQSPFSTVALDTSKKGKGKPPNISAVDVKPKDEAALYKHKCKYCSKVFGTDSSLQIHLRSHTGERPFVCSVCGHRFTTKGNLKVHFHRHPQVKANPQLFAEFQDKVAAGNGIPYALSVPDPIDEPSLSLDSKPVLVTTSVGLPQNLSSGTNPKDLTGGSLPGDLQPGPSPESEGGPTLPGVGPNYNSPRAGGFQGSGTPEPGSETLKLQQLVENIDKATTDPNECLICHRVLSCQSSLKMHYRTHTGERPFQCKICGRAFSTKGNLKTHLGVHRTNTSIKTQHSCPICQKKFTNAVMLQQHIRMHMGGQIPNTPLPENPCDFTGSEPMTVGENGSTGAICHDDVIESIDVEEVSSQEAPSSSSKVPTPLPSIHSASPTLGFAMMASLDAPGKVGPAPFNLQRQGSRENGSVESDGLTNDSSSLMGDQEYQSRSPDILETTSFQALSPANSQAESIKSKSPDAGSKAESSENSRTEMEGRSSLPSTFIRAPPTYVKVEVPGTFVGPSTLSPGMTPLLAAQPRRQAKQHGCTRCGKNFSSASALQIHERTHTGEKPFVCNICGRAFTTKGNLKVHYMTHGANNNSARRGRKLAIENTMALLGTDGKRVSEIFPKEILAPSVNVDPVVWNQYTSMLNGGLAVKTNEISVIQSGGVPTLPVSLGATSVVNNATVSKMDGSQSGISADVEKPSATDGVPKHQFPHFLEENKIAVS
Setting: 8-mer, flanks averaged, mean of replicates
CGGTCTAA: 0.0435
AAGTTTCA: 0.183
AAAGAAAC: 0.119
TGTAAACA: 0.293
CGGCTAAA: -0.00423
AGCGGTAA: 0.036

Block 2 — technique: protein-binding microarray; form: double-stranded DNA, one strand shown; matrix: in vitro; concentration: 2540 nM top; setting: 60-bp whole probe; together with: salmon DNA 0.4 mg/ml; reference: random background probes; direction: higher = stronger binding; endpoint: fitted relative affinity; constant ends, left off below: GCCTAGCAC … GTCTTGATTCGCTTGACGCTGCTG
Target: Interferon regulatory factor 3, full length, phosphomimetic (IRF3, Homo sapiens, UniProt Q14653, residues 1-427, S386D/S396D/S398D/S402D/T404D/S405D)
Sequence of UniProt Q14653 (whole entry, unmodified, looked up): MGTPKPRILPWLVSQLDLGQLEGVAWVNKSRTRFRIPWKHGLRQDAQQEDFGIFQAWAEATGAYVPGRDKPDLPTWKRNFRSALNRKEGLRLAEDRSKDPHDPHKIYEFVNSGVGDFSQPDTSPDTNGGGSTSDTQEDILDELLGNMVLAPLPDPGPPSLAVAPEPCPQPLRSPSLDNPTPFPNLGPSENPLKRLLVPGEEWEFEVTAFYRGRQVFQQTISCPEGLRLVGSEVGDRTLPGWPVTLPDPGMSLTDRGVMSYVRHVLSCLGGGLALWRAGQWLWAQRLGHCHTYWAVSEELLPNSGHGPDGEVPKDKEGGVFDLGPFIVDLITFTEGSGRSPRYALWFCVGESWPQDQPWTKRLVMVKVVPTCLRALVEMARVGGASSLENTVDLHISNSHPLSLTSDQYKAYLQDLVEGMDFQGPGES
TTAGAACTGAGACTGGATTGGTGCTAG: -0.319 z-score
CTATGTCTGTTTTTGCTTTCGTGCTAG: 1.29 z-score
GACGGTAACGGTTTCGGGACGTGCTAG: 2.76 z-score
TCATGTTTTTTTCTACTACTGTGCTAG: 0.706 z-score
GACGAGATCAGTTTCGAGACGTGCTAG: 3.18 z-score
GACGATCTCAGTCTCGAGCCGTGCTAG: 0.522 z-score
GACGGTATCGGACTGCGGACGTGCTAG: 1.61 z-score
TTAGATATCGGGAATGGATTAGTGCTA: -0.182 z-score

Block 3 — technique: protein binding microarray; form: double-stranded DNA, one strand shown; matrix: in vitro; concentration: not given; reference: not given; direction: higher = stronger binding; endpoint: E-score
Target: Histone acetyltransferase KAT6A, winged helix 2, GST fusion (KAT6A, Homo sapiens, UniProt Q92794, residues 85-181)
Setting: 8-mer, flanks averaged, mean of 2 arrays, mostly near background
Residues (chain): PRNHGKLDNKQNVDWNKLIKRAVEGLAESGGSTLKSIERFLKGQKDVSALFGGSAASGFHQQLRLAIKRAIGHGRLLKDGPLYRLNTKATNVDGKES
GCTCGTAC: -0.0719
TTCTACAA: 0.0164
ACGCGACC: 0.0381
CAGATCGC: 0.116
AACTGCTG: 0.0819
AACGTGCC: -0.202
ATCGGTAC: -0.0643
GCTCGAGC: 0.123
CACAAAGG: -0.0463

Other studies, line by line
PhoQ, residues 284 288 289 292 302 303 SLGVVW  fold induction (PhoP, residues 12 14 15 18 19 SHWTV (Escherichia coli, UniProt P23836); Sort-seq, measured: YFP reporter; E. coli; PhoQ-PhoP variant library, together with: 10 µM Mg2+; reference: high Mg2+ state, higher = stronger signaling): 28.8

For quick reference, copied from above (block 2):
GACGATCTCAGTCTCGAGCCGTGCTAG: 0.522 z-score
GACGGTATCGGACTGCGGACGTGCTAG: 1.61 z-score
